Assay results collected from several papers.
Parts stem from different laboratories: compare values within a part only.

Series 1 — technique: RNA Bind-n-Seq; molecule type: RNA; matrix: in vitro; tested at: 100 nM; relative to: input RNA pool; direction: higher = stronger binding; endpoint: bound/input enrichment
Target: RING finger protein unkempt homolog, zinc fingers 1-6, SBP tag (UNK, Homo sapiens, UniProt Q9C0B0, residues 30-357)
Sequence of UniProt Q9C0B0 (30-357, looked up): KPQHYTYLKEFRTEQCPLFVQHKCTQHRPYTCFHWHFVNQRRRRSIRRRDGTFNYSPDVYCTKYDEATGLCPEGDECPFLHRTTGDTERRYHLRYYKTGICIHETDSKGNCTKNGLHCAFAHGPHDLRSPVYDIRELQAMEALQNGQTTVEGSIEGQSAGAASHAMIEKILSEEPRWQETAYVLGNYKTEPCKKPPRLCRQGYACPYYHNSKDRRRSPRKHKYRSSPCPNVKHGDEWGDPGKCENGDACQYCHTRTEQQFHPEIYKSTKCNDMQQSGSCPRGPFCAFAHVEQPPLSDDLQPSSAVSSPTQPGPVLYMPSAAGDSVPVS
Setting: RNA with constant flanks, vertebrate orthologous sites, ends assumed
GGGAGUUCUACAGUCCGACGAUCCUACUGUAAUCAACUCAGGGCAGUAUUCUCGAUAUCCUUACAAUAACCUAAAUCAGGGAUUAGUUAACAAUACAGGGAUGAAUCAAAAUUUAGGCCUUACGAAUAAUAAUCCAAUAAAUCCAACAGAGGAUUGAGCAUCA: 1.37 ratio
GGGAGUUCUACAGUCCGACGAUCUGUGCUUAUGCUCUUCUAUGAAAGAGAUGAAUUGGGGAGAACUGUCUCCUUUUUAUAGGUUAGUUUCUUUCUAAAUUAUGACUAAAAAUAUUUUGCUAUUUCUUUCUUUGUAUAUGGACGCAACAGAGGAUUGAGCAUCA: 0.49 ratio
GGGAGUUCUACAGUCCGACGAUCAUCCCUCAGUGACAGUGUGCCAUCUGUAGCAGAUUCCCACUCUAGUCAUUUUUCUGAAUUUAGUUGUUCUGACCUAGAAAGCAUGAAAACUUCCUGCAGUCAUGGUUCCAGUGAUUAUCACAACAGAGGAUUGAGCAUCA: 2.97 ratio
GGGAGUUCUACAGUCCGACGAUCCACCUCCUGAUCUUCUAGCUUUCAAGUUGUGGCUGUUUUCGAUACUGGUUUUCUUUCCUUUAGAAUUUCCCCCCCGUUGUUGUCCACCUUCUCUAUCCCUGUUGCCAAGGUUGACUCAUGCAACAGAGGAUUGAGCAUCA: 0.955 ratio
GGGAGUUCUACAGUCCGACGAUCGAGAUGAGACCAUAGACAGGGGUAACUUAAUUUAUUUUAAUAAGAUACUGAGAACCACCUUAGUAGUAGGUUCCGUUGGCAAAUGUCAGCCUAUAUUCCAAAGUAUUCUAUAAUGGAAAUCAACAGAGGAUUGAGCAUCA: 1.25 ratio
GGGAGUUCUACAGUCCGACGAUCCCCUCUGAACCCCAUAUCUUCUGUCUCAUAGUGCAGAAGUAUUCUUUUCAGUUAUAUUACUAGUGGACUUGUUUUAAUUUUAGAGAACUUCAGUACGGAUACUGUGAGCUUACAUGGAAACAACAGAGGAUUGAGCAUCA: 2.07 ratio
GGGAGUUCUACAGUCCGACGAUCUGAGUGUUGGAAGAAUAGCAUAUGAGGUUGUGGUCAAAAAGUAGGAGCAGCAGGGGAGAGAAGAUACAGGUAUCAACAGCCAGGUGGUAAAAGGUGCAGAUGAAGGUCACUGAAACUCAACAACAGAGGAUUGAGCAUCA: 0.487 ratio
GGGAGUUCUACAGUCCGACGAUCCGGCUGAUUCGCUCAUCGGGAGAGCUGCACACAUAGCUGUUCUUGAUUCAGAAAUAUUUUUAGAGAAGUUUUUUCUGGUUGCUGCCCUCAAAUAUUUUCAGUAGAACAGAAGCAUCAUUACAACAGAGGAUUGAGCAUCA: 0.565 ratio

Series 2 — technique: RNA Bind-n-Seq; molecule type: RNA; matrix: in vitro; tested at: 200 nM; setting: whole 134-nt RNA, ends assumed; together with: 150 mM LiCl; relative to: input library; direction: higher = stronger binding; endpoint: log2 enrichment; all molecules: 7-deaza-guanosine replaces G
Target: Ras GTPase-activating protein-binding protein 1, full length (G3BP1, Homo sapiens, UniProt Q13283)
Sequence of UniProt Q13283 (whole entry, looked up): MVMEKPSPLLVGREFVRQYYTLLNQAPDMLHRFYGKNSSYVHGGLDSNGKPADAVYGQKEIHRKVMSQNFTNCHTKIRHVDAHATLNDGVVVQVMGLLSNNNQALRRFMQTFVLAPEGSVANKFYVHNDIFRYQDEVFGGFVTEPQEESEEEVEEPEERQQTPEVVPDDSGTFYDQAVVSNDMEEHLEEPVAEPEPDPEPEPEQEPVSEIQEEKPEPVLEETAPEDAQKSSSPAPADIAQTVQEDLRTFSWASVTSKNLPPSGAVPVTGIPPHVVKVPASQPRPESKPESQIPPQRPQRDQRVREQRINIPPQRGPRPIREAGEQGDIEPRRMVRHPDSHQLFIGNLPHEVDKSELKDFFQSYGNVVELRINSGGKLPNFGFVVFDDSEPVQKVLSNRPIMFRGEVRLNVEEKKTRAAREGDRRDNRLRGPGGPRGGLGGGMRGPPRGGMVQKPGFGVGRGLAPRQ
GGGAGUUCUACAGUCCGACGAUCAAGUCCUGUGCUACACAUCGUAUGUACCGAAUCGGGUUUUGGGGUUUUGGGUUUUGGAAAGUAUUAUGUUACGCCGUUCGGAUCUGCACUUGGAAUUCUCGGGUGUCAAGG: 0.15
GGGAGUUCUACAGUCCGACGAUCGCAGGAAGUAAAAACAAAUGGAAAUGCUUCGGAUAGUGGCAGGGGUGGGGGUUGCUAAGGAAAGGGUGGGAUGGGAGUGGGUAUAGAGUUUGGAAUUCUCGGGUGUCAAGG: 0.598
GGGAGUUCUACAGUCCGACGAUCUAACUUUAGAGGAGGAUCUGAUGGAUAUGGCAGUGGACGUGGAUUUGGGAAUGGCUAUAAUGGGUAUGGAGGAGGACCUGGAGGUGGCAAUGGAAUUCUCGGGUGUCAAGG: -0.247
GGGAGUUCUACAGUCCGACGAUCUUGUGAUUAAGAUUUGUUCUUUUUCUCCCCUCUCUAUAGGAAGAUGAUCCCUAUGAUCUUGAAGAUGUUUCUGCACAGAAAUGAGGGAAAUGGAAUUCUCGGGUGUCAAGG: 0.204
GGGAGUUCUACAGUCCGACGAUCGUCCUGUGCUACACAUCGUAUGUACCGAAUCGGGGUUUGGGGAAAGGGGAAAAAGGGGAAAGUAUUAUGUUACGCCGUUCGGAUCUGCACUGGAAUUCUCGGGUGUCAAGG: 0.319
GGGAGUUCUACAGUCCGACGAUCUGGGAGGUGGAUUUUGUUUAUUUUUUUAGCUCAUUUCCAGGGGUGGGAAUUUUUUUUAAAUAUGUGUCAUGAAUAAAGUUGUUUUUGAAAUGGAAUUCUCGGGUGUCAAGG: -0.489
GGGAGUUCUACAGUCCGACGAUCUGGGAGGUGGAUUUUGUUUAUUUUUUUAGCUCAUUUCCAGGGGUGGGAAUUUUUUUUUAAUAUGUGCCAUGAAUAAAGUUGUUUUUGAAAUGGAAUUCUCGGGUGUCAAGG: 0.0363

Series 3 — technique: aptamer microarray, sandwich; molecule type: DNA with 2'F-ANA; matrix: in vitro; tested at: 200 nM; together with: Cy3 exosite-II aptamer, 400 nM; direction: higher = stronger binding; endpoint: mean fluorescence intensity; sequence: GGTTGGTGTGGTTGG
Target: Prothrombin, mature alpha-thrombin (F2, Homo sapiens, UniProt P00734)
Setting: whole 15-mer aptamer, many near background
2'F-ANA at 1 2 5 7 8 9 10 11 12 13 15: 56.1 a.u.
2'F-ANA at 1 3 4 5 7: 61.6 a.u.
2'F-ANA at 2 4 5 8 9 11 12 15: 271 a.u.
2'F-ANA at 1 3 5 6 8 10 11 13 14: 79.6 a.u.
2'F-ANA at 1 3 7 9 13 15: 226 a.u.
2'F-ANA at 3 5 6 8 10 11: 56.5 a.u.
2'F-ANA at 3 5 6 7 10 11 14: 56.6 a.u.
2'F-ANA at 2 3 4 7 8 11 15: 596 a.u.
2'F-ANA at 1 2 5 7 10 11 12 13 14: 47.2 a.u.
2'F-ANA at 1 2 5 8 9 11 12 14 15: 55.3 a.u.
2'F-ANA at 2 3 4 11 12: 764 a.u.
2'F-ANA at 1 2 4 8 10 11 13: 62.2 a.u.
2'F-ANA at 2 3 5 8 9 13 14: 52.1 a.u.
2'F-ANA at 2 5 7 13: 63.9 a.u.
2'F-ANA at 3 8 13 15: 850 a.u.
2'F-ANA at 5 7 10 11 14: 43.6 a.u.

Series 4 — technique: RNA Bind-n-Seq; molecule type: RNA; matrix: in vitro; tested at: 365 nM; relative to: no-protein control; direction: higher = stronger binding; endpoint: RBNS enrichment (R)
Target: RNA binding protein fox-1 homolog 2, RRM domain, GST-SBP tag (RBFOX2, Homo sapiens, UniProt O43251-10, residues 100-194)
Setting: natural RNA segment, single round, ends assumed
Residues (chain): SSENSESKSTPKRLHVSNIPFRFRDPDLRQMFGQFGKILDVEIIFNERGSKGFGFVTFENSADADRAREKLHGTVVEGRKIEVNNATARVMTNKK
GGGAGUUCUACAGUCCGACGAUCCUGGCUGCCCUCCUCCCUGGCUGUGUAAAUAGUCUCCCUAUCCCACGAGGGGGCUUUGAUGGCCCUGGAGAUCCUACAGUAAAUAAACCAGCAUCCUGCCGCCCAAAGCCUGGAAUUCUCGGGUGCCAA: 0.5
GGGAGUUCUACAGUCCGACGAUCGUAGCGUCUCAAGGUAUGCGUUCUCUCAAAGGAAAGCUAUGCAUCGCUGCUUCGUUGUCUGAUUUUGCUUAGAUUUUGCUUUGGUUAGGUUGCGUUUUGGGGUUUGCCUUUGGAAUUCUCGGGUGCCAA: 0.425
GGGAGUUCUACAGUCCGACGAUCGUCUGGACUUAGCUUCAAACUCUAUGGAUUCGGCCUUGGUAGGGAAUUGUACCACCACUUGGUUUGGACUACAAAUUAAACAUUGGCCCUCGCGGAGCUUGAGUUCUUCAUGGAAUUCUCGGGUGCCAA: 0.477
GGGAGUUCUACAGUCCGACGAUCAAGAGCCCGUCUGCACCCCAGACCCAGGGCCUCAGGCCUCCAGCUCCUGGGAUCCGGGAGUCCAUCCCGGCCCAGCACCCCCAGCAUCCCCGUGUAUGGCCCCCCUGCACUGGAAUUCUCGGGUGCCAA: 3.15
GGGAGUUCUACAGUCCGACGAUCUAUCAGUUCAAGGUGGGAGUCUUUGCUCUCAUCACCUGCAGUUCCACCUUGUGUUCAGAAAGCAAAAGUGAAGUGAUAGCCAAGCAUGGGCCACUAGAUGGAGUAUCCUGUGGAAUUCUCGGGUGCCAA: 1.23
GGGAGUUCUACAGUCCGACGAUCGAUUUGUGAAUAUUUUUCAUUCCAUCAACAAGGGAGUUUAAAUACUAUAUGUGAGACUGACAAAAACCUUAAUGUAAUUUACUUAUAAUGCCAGAAGGAAAACACUAUUUUGGAAUUCUCGGGUGCCAA: 0.962
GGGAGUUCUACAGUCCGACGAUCUCCAAACAGCAUCAUCCAAAUCCAACUGAGGACAGACGGACUGUCCCGGCCUGGGCCUGGGCUCCUAACACCUGACUGCCAAAGGGCUCCAAUGUGCAUUGUGGACUCGCUGGAAUUCUCGGGUGCCAA: 1.89
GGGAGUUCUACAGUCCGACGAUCGGUCCCAAAUGGGGGCCCCAUUUCACCUGUAUCAGGACUCUGAGCAUCCCCAGCUGCCCCACAUCUUGCCUCUGGCCCUCAGAGAGGGGUGUUUCUGUGGGUACUCCUCUUGGAAUUCUCGGGUGCCAA: 0.38
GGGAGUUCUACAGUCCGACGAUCAUGUGUAGCUCUAUGUCAAAUAGAGGGGGAAUGGAGGACCCCCUCCUUCCUGCCUCAUGGCUGUUCUUGAAACAGCUUAGAGCGAUUCUAUGAAAAAAUGUAAUAAAAAAUGGAAUUCUCGGGUGCCAA: 0.439
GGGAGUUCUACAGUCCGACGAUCGCUGAAAAUCAAAGUAAAAAAUUAAAGCCCAUAAGGCCAGAAACUCCUUUUGCUGUCUUUCUCUAAAUAUGAUUACUUUAAAAUAAAAAAGUAACAAGGUGUCUUUUCCAUGGAAUUCUCGGGUGCCAA: 0.758
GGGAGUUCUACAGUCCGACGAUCCACCCCCCAGGGAGGACCCAGCCCUGGCUUUGGGGCUAUUCUGCAGGGUUGUCUAGAGGAGUGGGGAGAUGACUUUGGGGGUUCUCCUGAUUCAGUGCCAAUAGCCACAGUGGAAUUCUCGGGUGCCAA: 0.583
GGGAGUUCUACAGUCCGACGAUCCCGUGUGCUUUAAAAAGGUGUUGUUAUGAAGUUUGCUGUUCUGGCAAUAAACUUGCAGACCUUGGAAGUGCUUGUGUUUUGAUUUCUAAUGCAUUUAUGCAUACAAAGACUGGAAUUCUCGGGUGCCAA: 0.283

Series 5 — technique: protein binding microarray; molecule type: double-stranded DNA, one strand shown; matrix: in vitro; tested at: not given; relative to: not given; direction: higher = stronger binding; endpoint: E-score
Target: Histone acetyltransferase KAT6A, winged helix 1, GST fusion (KAT6A, Homo sapiens, UniProt Q92794, residues 1-85)
Setting: 8-mer, flanks averaged, mean of 2 arrays, mostly near background
Construct (chain): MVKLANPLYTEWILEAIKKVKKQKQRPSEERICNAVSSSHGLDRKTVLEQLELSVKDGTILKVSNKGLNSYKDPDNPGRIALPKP
CTGGATAA: -0.128
GGAGGAGA: -0.0467
GTAATTTA: 0.077
AACCGCTG: 0.0819
ATCGCCCC: 0.0772
CAGCACAC: -0.116
ATCCGGTC: -0.0147
CCATCGTC: -0.0319
CTTCGCGC: 0.245
AATCTAAT: -0.0195
GCTGGTTA: -0.233
CAGTTCTA: -0.0439
TATTGCCA: -0.117
TCCCATAA: -0.219
GCTCATCC: -0.039
CGTAGCCA: 0.0511
CACAGACC: 0.0578
AGAGCCCA: -0.25
CCCAAAAG: -0.161
ACTCGGCC: 0.201

Some of these lines once more (series 5):
GTAATTTA: 0.077
AGAGCCCA: -0.25
CCATCGTC: -0.0319
ATCGCCCC: 0.0772
CACAGACC: 0.0578
ATCCGGTC: -0.0147
